Assay results gathered from unrelated publications.
Protocols differ between the studies behind these lines. “And” joins repeats or separate records; there may be more than shown. Numbers after ± are the reported error.
PHGDH: D-3-phosphoglycerate dehydrogenase (PHGDH, Homo sapiens, UniProt O43175)
Sodium- and chloride-dependent glycine transporter 2: Sodium- and chloride-dependent glycine transporter 2 (Homo sapiens, UniProt Q9Y345)
Gria1/Gria2: Glutamate receptor AMPA 1/2 (Gria1/Gria2, Rattus norvegicus, UniProt P19490+P19491)
IL1RL2: Interleukin-1 receptor-like 2 (IL1RL2, Homo sapiens, UniProt Q9HB29)

`Fc1ccc(Nc2nc(NC3CCCCC3)c3ccccc3n2)cc1F` gave a maximal inhibition of 10.6% (Beta-2 adrenergic receptor (ADRB2, Homo sapiens, UniProt P07550, C125V); β-arrestin2 recruitment, antagonist, BRET; mutant C125V; reference: isoprenaline maximal response).
With `COc1ccccc1-c1ccncc1C(=O)Nc1nnc(OCc2ccc(Cl)cc2)s1` the remaining activity was 29% (DNA polymerase theta, helicase domain (POLQ, Homo sapiens, UniProt O75417); ATPase activity, ADP-Glo; 0.48 µM, added: ATP 600 µM).
With `O=C1c2sc(-c3ccc(N4CCC(CO)CC4)nc3F)nc2CCN1c1cccnc1` the specific binding was 3.29 nM and 4.17 nM and 3.96 nM and 4.01 nM (TAR DNA-binding protein 43, aggregated (TARDBP, Homo sapiens, UniProt Q13148); radioligand binding; human, FTLD-TDP type A insoluble extract; 26.56 nM).
With `CC(=O)NCCCC[C@H](NC(=O)[C@H](CO)NC(=O)CNC(=O)[C@H](CCCCN)NC(=O)[C@H](CCCCN)NC(=O)[C@@H]1CCCN1C(=O)[C@H](C)NC(=O)[C@@H]1CCCN1C(=O)[C@H](C)NC(=O)[C@H](CO)NC(=O)[C@H](CCCCN)NC(=O)[C@H](C)NC(=O)[C@@H]1CCCN1C(=O)[C@H](CC(=O)O)NC(=O)[C@@H]1CCCN1)C(=O)N[C@@H](CCCCN)C(=O)N[C@@H](C)C(=O)N[C@H](C(=O)N[C@H](C(=O)O)[C@@H](C)O)C(C)C` the binding stoichiometry was 1 (YEATS domain-containing protein 4, YEATS domain (Homo sapiens, UniProt O95619); isothermal titration calorimetry; concentration not given, pH 7.6, 25 °C, added: histone peptide).
`CCCCCC(O)/C=C/C=O` (stereo not drawn) — result for “isoTOP-ABPP competition ratio”: 12 (PHGDH; competitive isoTOP-ABPP; Ramos soluble proteome; 100 µM, 60 min, added: iodoacetamide probe; reference: DMSO over compound-treated, higher = stronger cysteine blockade).
The activity of `COc1cc2ncnc(Nc3ccc(Oc4cccc(-c5ccccc5)c4)cc3)c2cc1OC` is reported as 430% and > 400% (SMUG1 (Homo sapiens, UniProt Q53HV7); enzyme activity, activator, fluorescence; 2 µM; reference: control).
`C#CCCCCNC(=O)c1ccc(N(C(=O)C=C)c2ccc(Br)cc2)cc1` has a reactivity ratio of 1.69 (PHGDH; mass spectrometry profiling; H460 cell lysate; 100 µM over 10 µM, UniProt O43175; reference: high over low concentration).
For `CCn1cc(-c2cccc(C(F)(F)F)c2)c2sc(C(=N)NC3CCS(=O)(=O)CC3)cc2c1=O`, the ΔTm was 14.4 °C (Bromodomain-containing protein 9 (BRD9, Homo sapiens, UniProt Q9H8M2); thermal stability, DSF).
`C=CC(=O)N1CCCC(n2c(=O)c3ncccc3n(Cc3ccc(Oc4ccccc4)cc3)c2=O)C1` (stereo not drawn) — result for “melting temperature shift”: -10.2 (Calcium/calmodulin-dependent protein kinase type 1D (CAMK1D, Homo sapiens, UniProt Q8IU85); thermal proteome profiling; cell proteome; unit not given; reference: vehicle).
`COc1ccc2cc(C(C)C(=O)NC3CCN(Cc4ccccc4)CC3)ccc2c1` (stereo not drawn): “remaining specific binding” 94.2 ± 3.7% (Sodium- and chloride-dependent glycine transporter 2; MS binding competition; 10 µM).
With `CC(C)Oc1cc(Cl)ccc1CNc1cc(-c2ccccc2)nc2ncnn12` the cAMP luminescence was 47600 a.u. and 35000 a.u. and 34800 a.u. and 38200 a.u. (G-protein coupled receptor 3 (GPR3, Homo sapiens, UniProt P46089, Q211A); cAMP level, cAMP GloSensor; 10 pM; higher = more cAMP).
`COCCOc1cc2ncnc(Nc3cccc(-c4cn(-c5ccccc5S(N)(=O)=O)nn4)c3)c2cc1OCCOC` has a selectivity ratio of 2.15 (Carbonic anhydrase 12 (CA12, Homo sapiens, UniProt O43570); stopped-flow CO2 hydration; reference: Ki hCA VI over Ki hCA XII).
For `COC(=O)Cc1cc2c(cc1C(=O)c1ccccc1I)OCO2`, “deactivation time constant” read 2.5 ± 0.2 ms (Gria1/Gria2; glutamate-evoked current, whole-cell patch clamp; HEK-293T; concentration not given, weighted tau, 1 ms pulse, added: glutamate).
`N#Cc1cnc2sc(C(=O)O)cc2c1N1CCc2[nH]nc(C(=O)N[C@@H](CC(=O)NCCOCCN3CCOCC3)c3cccc(Br)c3)c2C1` gave a remaining activity of 28.1% (IL1RL2; reporter gene (SEAP), inhibitor, HEK-Blue IL-36R reporter; HEK-Blue IL-36R cells; 33.33 µM, 6 h, added: IL36G 0.01 ng/mL).
`O=C(NC1CCN(Cc2ccccc2)CC1)c1ccccc1`: “remaining specific binding” 72.7 ± 14.9% (Sodium- and chloride-dependent glycine transporter 2; MS binding competition; 10 µM).
For `CN(Cc1cc(C2CC2)on1)C(=O)c1cccc(-c2ccc3c(c2)CCO3)c1`, the reaction rate was 0.00304 a.u. (Acetyl-coenzyme A synthetase 2 (ACS2, Candida albicans, UniProt Q8NJN3); enzyme activity, inhibitor, coupled pyrophosphate; 200 nM; higher is more activity).
`CC(=O)c1cnc(NS(=O)(=O)c2ccc(C(F)(F)F)c(Cl)c2)nc1`: “oxidized product ratio” 0.226 and 0.262 and 0.291 and 0.236 (17-beta-hydroxysteroid dehydrogenase 13 (Homo sapiens, UniProt Q7Z5P4); enzyme activity; human hepatocytes, scramble siRNA, culture medium; 24 h; reference: scramble siRNA control).
Under “SPR binding response”, `CCCCCCCCCCCCCCCc1cccc(OCC)c1C(=O)Nc1ccc(Cl)c(C(F)(F)F)c1` is recorded as 1.07 RU (Histone acetyltransferase KAT5 (KAT5, Homo sapiens, UniProt Q92993); SPR; 50 µM; higher = more binding).
With `CC(C)[C@@H]1NC(=O)[C@H](Cc2ccccc2)NC(=O)CSC[C@@H](C(N)=O)NC(=O)[C@H](CCC(=O)O)NC(=O)[C@H](CO)NC(=O)[C@H](Cc2c[nH]c3cccc(Cl)c23)NC(=O)[C@H](C2CCCCC2)NC(=O)[C@H](C(C)C)NC(=O)[C@H](Cc2ccc(O)cc2)NC(=O)[C@H](CC(=O)O)NC(=O)[C@H](Cc2c[nH]c3ccccc23)NC(=O)[C@H](Cc2ccc(N)nc2)NC(=O)[C@H](Cc2c[nH]c3ccc(Cl)cc23)NC(=O)[C@H](CCC(=O)O)NC1=O` the remaining activity was 89.9% (IL1RL2; reporter gene (SEAP), inhibitor, HEK-Blue IL-36R reporter; HEK-Blue IL-36R cells; 0.0017 µM, 6 h, added: IL-36β 100 ng/mL).
`COC(=O)[C@@]1(C)C=C(C(=O)Nc2cccc(C(=O)Nc3ccc(Nc4nccc(-c5cccnc5)n4)c(C)c3)c2)C(=O)CC1` gave a remaining activity of 0.178 (Mitogen-activated protein kinase 8 (MAPK8, Homo sapiens, UniProt P45983); enzyme activity, inhibitor; 0.1829 µM, 0 h, unit not given, added: GSH 10 mM pre-incubation; reference: vehicle).
With `CCOC(=O)c1ccc2c(c1)C1CC(C)(N2)c2c(C)nc3ccc(C(=O)OCC)cc3c21` (stereo not drawn) the koff was 0.0292 s⁻¹ (Glideosome-associated protein 50 (GAP50, Plasmodium falciparum, UniProt Q8I2X3); binding, surface plasmon resonance; 1:1 binding model).
`OC[C@@H]1[C@@H](O)[C@H](O)[C@@H](O)c2nccn21` has a -ΔS of 3.25 ± 0.311 kcal/mol (bglA (Thermotoga maritima, UniProt Q08638); ITC; pH 6.8, 25 °C).
The Km of `O=C(NCCCCOP(=O)(O)OP(=O)(O)OP(=O)(O)O)OCC1c2ccccc2-c2ccccc21` is reported as 0.03 µM (DNA polymerase lambda (POLL, Homo sapiens, UniProt Q9UGP5, Y505A); substrate, primer extension gel; Y505A mutant, AP-site template).
`CCCCCCCCCCCCCCCC(=O)NCCCC[C@H](NC(=O)[C@H](CCC(=O)O)NC(=O)[C@H](Cc1ccc(O)cc1)NC(=O)[C@H](CCC(=O)O)NC(=O)COCC(=O)NCCCOCCOCCOCCCNC(=O)[C@H](Cc1c[nH]c2ccccc12)NC(=O)[C@H](CCCCN)NC(=O)[C@H](C)NC(=O)[C@H](CCCCNC(=N)N)NC(=O)[C@H](CCC(N)=O)NC(=O)[C@H](Cc1c[nH]cn1)NC(=O)[C@H](CCSC)NC(=O)[C@H](CC(C)C)NC(=O)[C@H](CCC(N)=O)NC(=O)[C@@H](NC(=O)[C@H](CCC(=O)O)NC(=O)C(C)(C)NC(=O)[C@@H](NC(=O)C(C)(C)N)C(C)C)[C@@H](C)CC)C(=O)N[C@@H](CCC(=O)O)C(=O)N[C@@H](Cc1ccc(O)cc1)C(=O)N[C@@H](CCC(=O)O)C(N)=O` — result for “cAMP luminescence AUC”: 75.4 a.u. (Parathyroid hormone/parathyroid hormone-related peptide receptor (PTH1R, Homo sapiens, UniProt Q03431); agonist; Saos-2 with cAMP reporter; 1 nM, 30 min, ligand-on phase; higher = more cAMP).
Under “current amplitude ratio”, `O=C(O)Cc1cc2c(cc1C(=O)c1ccccc1Br)OCO2` is recorded as 4.93 ± 0.3 (Gria1/Gria2; glutamate-evoked current, whole-cell patch clamp; HEK-293T; concentration not given; reference: glutamate alone).
Under “isoTOP-ABPP competition ratio”, `CCCCCC=CC=C1C(=O)C=CC1CC=CCCCC(=O)O` (stereo not drawn) is recorded as 1.5 (Multifunctional methyltransferase subunit TRM112-like protein (TRMT112, Homo sapiens, UniProt Q9UI30); competitive isoTOP-ABPP, item: HSPC152 cysteine peptide; Ramos soluble proteome; 100 µM, added: iodoacetamide probe; reference: DMSO over compound-treated, higher = stronger cysteine blockade).
`CC1(c2ccccc2)CC(C)(C)N(C(=O)c2cc([N+](=O)[O-])cc([N+](=O)[O-])c2)c2ccccc21` (stereo not drawn) has a relative translation of 108% (Trypanosoma cruzi; reporter mRNA translation, inhibitor, item: capped polyadenylated Renilla luciferase mRNA; cell-free extract; concentration not given; reference: control RNA).
`Cc1cc(=O)oc2cc(NC(=O)CCCCCCC(=O)NO)ccc12` has a TΔS of 2.8 kcal/mol (Histone deacetylase 8 (HDAC8, Homo sapiens, UniProt Q9BY41); ITC; phosphate buffer; pH 7.5).
`C=C(C)C1CC=C(CN2CCN(Cc3ccccc3)CC2)CC1` (stereo not drawn) gave a relative translation of 102% (Trypanosoma cruzi; reporter mRNA translation, inhibitor, item: capped polyadenylated Renilla luciferase mRNA; cell-free extract; concentration not given; reference: control RNA).
`COC(=O)Cc1cc2c(cc1C(=O)c1cccc(I)c1)OCO2`: “deactivation time constant” 2.6 ± 0.2 ms (Gria1/Gria2; glutamate-evoked current, whole-cell patch clamp; HEK-293T; concentration not given, weighted tau, 1 ms pulse, added: glutamate).

A few entries again:
With `CCOC(=O)c1ccc2c(c1)C1CC(C)(N2)c2c(C)nc3ccc(C(=O)OCC)cc3c21` (stereo not drawn) the koff was 0.0292 s⁻¹ (Glideosome-associated protein 50 (GAP50, Plasmodium falciparum, UniProt Q8I2X3); binding, surface plasmon resonance; 1:1 binding model).
With `CC(C)Oc1cc(Cl)ccc1CNc1cc(-c2ccccc2)nc2ncnn12` the cAMP luminescence was 47600 a.u. and 35000 a.u. and 34800 a.u. and 38200 a.u. (G-protein coupled receptor 3 (GPR3, Homo sapiens, UniProt P46089, Q211A); cAMP level, cAMP GloSensor; 10 pM; higher = more cAMP).
`C=CC(=O)N1CCCC(n2c(=O)c3ncccc3n(Cc3ccc(Oc4ccccc4)cc3)c2=O)C1` (stereo not drawn) — result for “melting temperature shift”: -10.2 (Calcium/calmodulin-dependent protein kinase type 1D (CAMK1D, Homo sapiens, UniProt Q8IU85); thermal proteome profiling; cell proteome; unit not given; reference: vehicle).
`CCCCCC(O)/C=C/C=O` (stereo not drawn) — result for “isoTOP-ABPP competition ratio”: 12 (PHGDH; competitive isoTOP-ABPP; Ramos soluble proteome; 100 µM, 60 min, added: iodoacetamide probe; reference: DMSO over compound-treated, higher = stronger cysteine blockade).
